Assay results pooled from the literature.
Numbered parts are unrelated; each lists some results of a single study. Positions count from the first letter of the parent shown.

Sample 1 — target: CCND2, cyclin fold, Cln2 fusion (human); technique: yeast growth competition, sequencing; medium: yeast; notes: strong parent motif; relative to: not given; reading: higher = stronger binding
Parent: PKN2 docking peptide (human); VSAVRKLDFSDTM
For `VIAVRKLDFSDTM [S2I]`, “normalised enrichment score” read 1.74.
For `VSAVRKLDFSDKM [T12K]`, “normalised enrichment score” read 3.69.
`VDAVRKLDFSDTM [S2D]`: “normalised enrichment score” 1.16.
For `VSAVHKLDFSDTM [R5H]`, “normalised enrichment score” read 0.29.
`VSAVRRLDFSDTM [K6R]`: “normalised enrichment score” 3.92.
For `VSAVRKWDFSDTM [L7W]`, “normalised enrichment score” read 0.161.
For `VSAVRFLDFSDTM [K6F]`, “normalised enrichment score” read 1.91.
Under “normalised enrichment score”, `VSAVPKLDFSDTM [R5P]` is recorded as 0.282.
`VSYVRKLDFSDTM [A3Y]` — result for “normalised enrichment score”: 0.00276.

Sample 2 — technique: protein binding microarray; molecule type: double-stranded DNA, one strand shown; medium: in vitro; concentration: not given; relative to: not given; reading: higher = stronger binding
Target: Histone acetyltransferase KAT6A, winged helix 2, GST fusion (KAT6A, Homo sapiens, UniProt Q92794, residues 85-181)
Notes: 8-mer, flanks averaged, mean of 2 arrays, mostly near background
Target sequence (chain): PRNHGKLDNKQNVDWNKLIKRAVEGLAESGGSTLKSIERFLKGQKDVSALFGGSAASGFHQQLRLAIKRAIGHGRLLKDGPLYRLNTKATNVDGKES
`AATGGCGA` gave an E-score of 0.0644.
`CAGAAGGG` has an E-score of 0.0833.
For `GAATCGAA`, the E-score was 0.0806.
The E-score of `AGAACGGA` is reported as 0.00549.
With `GCGCACGC` the E-score was 0.122.
With `AAATATCT` the E-score was -0.0217.
For `CTGGAACA`, the E-score was 0.00148.
`AGAATGTG` gave an E-score of -0.142.
The E-score of `AAAAGATT` is reported as 0.0312.
`ACAACCGC` has an E-score of 0.0623.
With `GGGCACTA` the E-score was -0.00741.
`ATTAAGCC` gave an E-score of -0.0621.
For `GCATTCAA`, the E-score was 0.136.
For `ACGGCCGT`, the E-score was 0.0372.
With `ATTGTGAA` the E-score was -0.0714.

Sample 3 — technique: competition protein-binding microarray; molecule type: double-stranded DNA, one strand shown; medium: in vitro; concentration: 2 µM; together with: Cbf1 competitor, 0.05 µM; reading: higher = stronger binding; all sequences stand within: … GTCTTGATTCGCTTGACGCTGCTG
Target: Phosphate system positive regulatory protein PHO4, full length, GST-tagged (PHO4, Saccharomyces cerevisiae, UniProt P07270, residues 1-312)
Notes: whole 60-bp probe, lowest competitor level
Target sequence (chain): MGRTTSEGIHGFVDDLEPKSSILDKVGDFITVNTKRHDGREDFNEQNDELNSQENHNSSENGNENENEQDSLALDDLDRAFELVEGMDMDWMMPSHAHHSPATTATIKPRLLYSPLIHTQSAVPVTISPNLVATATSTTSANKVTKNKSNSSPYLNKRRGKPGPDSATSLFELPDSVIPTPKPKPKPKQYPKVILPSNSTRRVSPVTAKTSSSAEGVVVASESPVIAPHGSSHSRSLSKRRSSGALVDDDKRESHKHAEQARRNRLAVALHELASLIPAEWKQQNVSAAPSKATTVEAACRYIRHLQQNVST
With `CATACCCAACCTTCACACGTGTTTTAAGATATTTGT` the fluorescence intensity was 19900 a.u.
`CATACCCAACCTTTTCACGTGGCATAAGATATTTGT` gave a fluorescence intensity of 15700 a.u.
With `TAGCATCATTTTCGTCACGTGCAAAATCTGCCAGTA` the fluorescence intensity was 15300 a.u.
The fluorescence intensity of `GGCAATATCAGTACCCACGTAACCGTGTGTTTCAGC` is reported as 7760 a.u.
With `CGGGCCGTTCCGCGGGATGTGACGCTTCGCAAGTTA` the fluorescence intensity was 3290 a.u.
For `GGCGCAAATAGTTGCCACGTGCGATTGCGGTGTATG`, the fluorescence intensity was 18400 a.u.
`CTATGACGAATCAATGACATGACAACATTTACCAAT` has a fluorescence intensity of 4230 a.u.
`TTGAACTCGCCGCCTCACCTGCCACTACGTCTTCCG` gave a fluorescence intensity of 3910 a.u.
`CTAACGAAGGTTTTTCACGTGACCTACAAGCCAAGT` has a fluorescence intensity of 10500 a.u.
For `AAATTACTAAGTTTTCACGTGATATACCCCGTATGA`, the fluorescence intensity was 11200 a.u.
For `AAAGCGGTAATTTTTCACGTGCTGTCAAATATCTAT`, the fluorescence intensity was 16200 a.u.
`TGCGCAACAACTTGGTATGTGGGTGTATGTCTAGAA` gave a fluorescence intensity of 5790 a.u.
The fluorescence intensity of `GCCATTGGATACCGTCACGTGGGTAATGGTAATCTA` is reported as 18200 a.u.
With `CGGGGTTAAGTTTTTCACGTGTCGTGCGATCAGCAG` the fluorescence intensity was 13100 a.u.
With `TCCTGAATCAATAAGAAGGTGATGGGGTAGTTCGTC` the fluorescence intensity was 3680 a.u.
With `TTGACGTTGCATATCAACGTGCCAGATCCCGGAATA` the fluorescence intensity was 12000 a.u.
`CTTCTGTAAATTTGCTCAGTGGGTGGACGCGCCCCG` gave a fluorescence intensity of 4180 a.u.
The fluorescence intensity of `TGAAATGGAATCGACCACGGGTCTTGTTGAAAGCAG` is reported as 9470 a.u.
With `GTGTGTATACAAAGAAGAGAGGTGTTAGACCAGTAT` the fluorescence intensity was 5400 a.u.

Sample 4 — technique: protein-binding microarray; molecule type: double-stranded DNA, one strand shown; medium: in vitro; concentration: 250 nM; notes: 60-bp whole probe; together with: salmon DNA 0.4 mg/ml; relative to: random background probes; reading: higher = stronger binding; all sequences stand within: GCCTAGCAC … GTCTTGATTCGCTTGACGCTGCTG
Target: Interferon regulatory factor 7, full length, phosphomimetic (IRF7, Homo sapiens, UniProt Q92985, residues 1-503, S101K/S471D/S472D/S475D/S476D/S477D/S483D/S484D/S487D)
Construct (chain): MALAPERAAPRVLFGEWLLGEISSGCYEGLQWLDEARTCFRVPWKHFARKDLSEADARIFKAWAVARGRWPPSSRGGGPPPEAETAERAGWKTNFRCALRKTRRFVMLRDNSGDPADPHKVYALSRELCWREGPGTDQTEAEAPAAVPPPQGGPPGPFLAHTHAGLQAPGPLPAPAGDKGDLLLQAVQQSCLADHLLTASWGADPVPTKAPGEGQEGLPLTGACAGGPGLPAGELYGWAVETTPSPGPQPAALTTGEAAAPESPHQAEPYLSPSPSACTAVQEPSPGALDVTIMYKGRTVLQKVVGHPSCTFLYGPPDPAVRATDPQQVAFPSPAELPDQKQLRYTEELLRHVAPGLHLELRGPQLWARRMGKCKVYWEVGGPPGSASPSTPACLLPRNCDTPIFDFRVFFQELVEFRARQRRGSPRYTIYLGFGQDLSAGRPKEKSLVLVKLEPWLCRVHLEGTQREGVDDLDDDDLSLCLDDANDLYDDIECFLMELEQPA
With `GACCGTTTCGGTATCGGGACGTGCTAG` the log fluorescence was 5.65 z-score.
`GACGATTTCGGGACTGGACACGTGCTA` gave a log fluorescence of -0.0678 z-score.
The log fluorescence of `TTAGGACTGGGTATCCGTTAGTGCTAG` is reported as -0.0302 z-score.
`GACGGTTTCGACTTTCGGGGCGTGCTA` gave a log fluorescence of 10.5 z-score.
`GACGGACTGGGGTTTAGGGACGTGCTA` gave a log fluorescence of -0.911 z-score.
`GACGGGCTCCTACTGCTGACGTGCTAG` gave a log fluorescence of -0.644 z-score.
For `GACGAGTCCAGTTTCGAGACGTGCTAG`, the log fluorescence was 4.37 z-score.

Repeated from above (sample 2):
With `GCGCACGC` the E-score was 0.122.
For `ACGGCCGT`, the E-score was 0.0372.
With `AAATATCT` the E-score was -0.0217.
`ATTAAGCC` gave an E-score of -0.0621.
With `GGGCACTA` the E-score was -0.00741.
The E-score of `AAAAGATT` is reported as 0.0312.
